Assay results gathered from unrelated publications.
Each line is one published result; not all experiments were run side by side. Numbers after ± are the reported error.

CCC(C(=O)Nc1ccc(C(N)=O)c(F)c1)n1cc(OC)c(-c2cc(Cl)ccc2-n2cc(C(F)(F)F)nn2)cc1=O (stereo not shown)
drug-related adverse events (healthy male humans; 50 mg, together with: antacid): 0%

CCCCN1C(=O)c2cccc3c(NCCCCCCCCCCN4CCOCC4)ccc(c23)C1=O
fluorescence lifetime (dichloromethane): 10.4 ns

CCc1cnc(NC(=O)c2cc(S(=O)(=O)N3CCOCC3)ccc2N(C)C2CCCC2)s1
Chloride (mouse, serum; 10 mg/kg, 3 doses): 113 mEq/L

CN1CCC[C@]1(C)/C=C/S(=O)(=O)NC(=O)Nc1c2c(cc3c1C(O)CC3)CCC2 (stereo partly shown)
AUC(0-t) (human, plasma; oral, 100 mg twice daily of parent drug, day 14, metabolite of dosed drug): 525 µg·h/mL

CC[C@H](C)[C@@H](C(=O)N[C@@H](CC(C)C)C(=O)N[C@@H](CO)C(=O)N[C@@H](CO)C(=O)N[C@H](C(=O)N[C@@H](CCC(=O)O)C(=O)N[C@H](C(=O)NCC(=O)N[C@@H](CO)C(=O)N[C@@H](CC(N)=O)C(=O)N[C@H](C(=O)N1C[C@H](O)C[C@H]1C(N)=O)[C@@H](C)O)C(C)C)[C@@H](C)O)N(C)C(=O)[C@H](C)NC(=O)CN(C)C(=O)[C@H](Cc1ccccc1)NC(=O)[C@H](CO)NC(=O)[C@H](CO)NC(=O)[C@H](CCCNC(=N)N)NC(=O)[C@H](CCC(N)=O)NC(=O)[C@H](CC(C)C)NC(=O)[C@H](Cc1ccccc1)NC(=O)[C@H](CCCC(=O)O)NC(=O)[C@H](C)NC(=O)[C@H](CC(C)C)NC(=O)[C@H](CCCNC(=N)N)NC(=O)[C@H](CCC(=O)O)NC(=O)[C@@H](NC(=O)[C@H](C)NC(=O)[C@@H]1CCCCNC(=O)C[C@H](NC(=O)[C@H](CCCNC(=N)N)NC(=O)CC[C@H](NC(=O)CCCCCCCCCCCCCCCCCCC(=O)O)C(=O)O)C(=O)NCC(=O)N[C@@H]([C@@H](C)O)C(=O)N[C@@H](C)C(=O)N[C@@H]([C@@H](C)O)C(=O)N1)[C@@H](C)O
chemical degradation (RP-UPLC; formulation, histidine buffer, mannitol, NaCl; 1 weeks, pH 6.1, 40 °C): ≤ 3%

OC1(C(F)(F)F)CCN(c2nc(Nc3ccnc(C(F)(F)F)c3)nc(-c3cccc(C(F)(F)F)n3)n2)C1 (stereo not shown)
half-life (Sprague-Dawley rat, both sexes, plasma; oral gavage, 5 mg/kg, day 1): 15.2 ± 3.19 h

CN1CCC[C@]1(C)/C=C/S(=O)(=O)NC(=O)Nc1c2c(cc3c1CCC3)CCC2
respiratory, thoracic, mediastinal adverse events (human; oral, 12.5 mg twice daily, 14 days): 0%

C=C[C@]1(C)C[C@@H](OC(=O)CSc2ccc(NC(=O)c3ccco3)cc2)[C@]2(C)[C@H](C)CC[C@]3(CCC(=O)[C@H]32)[C@@H](C)[C@@H]1O
V2/F (chicken, Mycoplasmoides gallisepticum infected, plasma; intramuscular, 80 mg/kg): 2.24 L/kg

CC[C@H](C)[C@H](NC(=O)[C@H](CCCCN)NC(=O)[C@H](CCC(=O)O)NC(=O)[C@H](CO)NC(=O)[C@H](Cc1ccccc1)NC(=O)[C@H](CC(C)C)NC(=O)[C@H](CCC(N)=O)NC(=O)[C@H](CO)NC(=O)[C@H](C)NC(=O)[C@H](CCCCN)NC(=O)[C@H](Cc1c[nH]cn1)NC(=O)[C@H](Cc1c[nH]c2ccccc12)NC(=O)[C@H](CCC(N)=O)NC(=O)[C@H](CCCCN)NC(=O)[C@H](CCCCN)NC(=O)[C@H](CC(C)C)NC(=O)CNC(=O)[C@H](C)NC(=O)[C@@H](NC(=O)[C@H](CO)NC(=O)[C@@H](N)CCSC)C(C)C)C(=O)N[C@@H](CO)C(=O)NCC(=O)N[C@@H](C)C(N)=O
fractional helicity (circular dichroism; ~60% TFE): 51.7%

CCCCN1C(=O)c2cccc3c(NCCCCCN4CCOCC4)ccc(c23)C1=O
molar extinction coefficient (DMF): 8680 M⁻¹ cm⁻¹

C=CC(=O)N1CCCC(n2c(=O)c3ncccc3n(Cc3ccc(Oc4ccccc4)cc3)c2=O)C1 (stereo not shown)
plasma concentration (BALB/c mice, male, plasma; oral, 200 mg/kg, 4 h): 5210 ng/mL

C=C(NC(=O)c1csc(-c2nc3c(cc2O)-c2nc(cs2)C(=O)NC(C(C)O)C(=O)NC(=C(C)OC)c2nc(cs2)C(=O)NC2c4nc(cs4)C(=O)NC(COC(=O)c4c5c6c(cccc6n4O)COC(=O)C(OC4CC(C)(O)C(N(C)C)C(C)O4)C2OC5)c2nc-3cs2)n1)C(N)=O (stereo not shown)
half-life (ICR mice, Streptococcus pneumoniae ATCC 49169 infected, immunocompromised, blood; intravenous, 2 mg/kg/day twice daily): 2.68 h

CNC(=O)C[C@H](Cc1ccc(C#N)cc1)NC(=O)c1cc(-c2ccc(CN[C@H](C)c3ccc(C)cc3)o2)ccc1Cl
blood clearance (mouse liver microsomes; 1 µM): 83.3 mL/min/kg

CC[C@H](C)[C@H](NC(=O)CNC(=O)[C@H](C)NC(=O)[C@H](CC(=O)O)NC(=O)[C@H](CO)NC(=O)[C@H](C)NC(=O)[C@H](CC(C)C)NC(=O)[C@H](CCCCN)NC(=O)[C@H](CCCCN)NC(=O)[C@H](CCSC)NC(=O)[C@H](CC(N)=O)NC(=O)[C@H](Cc1ccccc1)NC(=O)[C@H](CC(=O)O)NC(=O)[C@@H](N)CCSC)C(=O)N[C@@H](Cc1c[nH]c2ccccc12)C(=O)N[C@@H](Cc1ccccc1)C(=O)N[C@H](C(=O)N[C@@H](CCCNC(=N)N)C(=O)N[C@@H](C)C(=O)N[C@H](C(=O)N[C@@H](CCC(N)=O)C(=O)N[C@@H](Cc1ccccc1)C(=O)N[C@H](C(=O)N[C@@H](CCC(=O)O)C(=O)N[C@@H](CCC(=O)O)C(=O)N[C@@H](CCCCN)C(=O)N[C@@H](Cc1ccccc1)C(=O)NCC(=O)N[C@@H](CCC(N)=O)C(=O)N[C@@H](C)C(N)=O)[C@@H](C)O)C(C)C)[C@@H](C)O
fractional helicity (circular dichroism; ~60% TFE): 32.4%

CC(C)[C@@H]1NC(=O)[C@@H](CCCNC(=N)N)NC(=O)[C@H]([C@@H](C)O)NC(=O)[C@@H](CCCN)NC(=O)[C@H](Cc2ccccc2)NC(=O)[C@@H](Cc2cccc(F)c2)NC1=O
haemolysis (haemolysis; human; 100 µM): < 10%

O=C(Nc1cnccc1-c1ccc([18F])nc1)c1ccnc(NC(=O)C2CC2)c1
mean SUV (ex vivo gamma counting; FVB/NJ mice, both sexes, cecum; intravenous, 120 min): 7.24

COCC1CN(C2CCN(c3cc(OC)c(Nc4ncc(Br)c(Nc5ccc6c(c5P(C)(C)=O)OCCO6)n4)cc3C)CC2)C1
Tmax at steady state (EGFR-mutant NSCLC patients, plasma; oral, 150 mg multiple doses, median): 2.98 h

Cc1cccc(Cn2ncc3c4cc(F)c(CN(C)C)cc4n(C)c3c2=O)n1
Vd/F (Sprague-Dawley rat, plasma; oral, 10 mg/kg): 49.3 L/kg

CCCCN1C(=O)c2cccc3c(NCCN4CCOCC4)ccc(c23)C1=O
molar extinction coefficient (DMSO): 7840 M⁻¹ cm⁻¹

O=C(Nc1cnccc1-c1ccc([18F])cc1)c1ccnc(NC(=O)C2CC2)c1
mean SUV (ex vivo biodistribution, gamma counting; GSK-3β overexpressing transgenic mouse, late stage, cecum; intravenous, 120 min post-injection, together with: tariquidar 15 mg/kg iv, at least 2 h before tracer): 1.4

CN([O-])C(=O)CN1CCN(CC(=O)N(C)[O-])CCN(Cc2ccccn2)CC1.[89Zr+4]
tracer uptake (mouse, spleen; intravenous, 24 h): 0.18 %ID/g

COc1cccc(OC)c1-c1cc(C(=O)NC2(C(=O)O)C3CC4CC(C3)CC2C4)nn1-c1ccc(C(=O)NCCNC(=O)[C@H](CCCCNC(=O)[C@H](CC(C)C)NC(=O)C2OC2C(=O)O)NC(=O)CN2CCN(CC(=O)[O-])CCN(CC(=O)[O-])CCN(CC(=O)[O-])CC2)cc1C(C)C.[177Lu+3] (mixture of isomers)
tumour-to-brain ratio (mouse, HT-29 xenograft; 24 h post injection, biodistribution; reference: tumour over brain uptake): 88.6

CC(C)C[C@H](NC(=O)[C@H](CCCN)NC(=O)CNC(=O)[C@@H](NC(=O)[C@H](C)NC(=O)[C@@H]1CSCSC[C@H](NC(=O)CC[C@H](N)C(=O)O)C(=O)N[C@@H](CC(N)=O)C(=O)N[C@@H]([C@@H](C)O)C(=O)N[C@@H](C)C(=O)N[C@@H]([C@@H](C)O)C(=O)N1)[C@@H](C)O)C(=O)N[C@@H](C)C(=O)N[C@@H](CCC(=O)O)C(=O)N[C@@](C)(Cc1ccccc1)C(=O)N[C@@H](CC(C)C)C(=O)N[C@H](C(=O)N[C@@H](CCCNC(=N)N)C(=O)N[C@@H](CO)C(=O)N[C@@H](CO)C(=O)N[C@@H](CC(N)=O)C(=O)N(C)[C@@H](CC(N)=O)C(=O)N[C@@H](Cc1ccccc1)C(=O)NCC(=O)N1CCC[C@H]1C(=O)N[C@@H](CCCCNC(=O)CC[C@H](NC(=O)CC[C@H](NC(=O)CCCCCCCCCCCCCCCCCCC(=O)O)C(=O)O)C(=O)O)C(=O)N[C@@H](CC(C)C)C(=O)N1CCC[C@H]1C(=O)N1CCC[C@H]1C(=O)N[C@H](C(=O)N[C@@H](CCC(=O)O)C(=O)N[C@H](C(=O)NCC(=O)N[C@@H](CO)C(=O)N[C@@H](CC(N)=O)C(=O)N[C@H](C(=O)N[C@@H](Cc1ccc(O)cc1)C(N)=O)[C@@H](C)O)C(C)C)[C@@H](C)O)C(C)C
AUC(0-tlast) (healthy human, plasma; subcutaneous, 0.12 mg single dose, geometric LS mean): 5.81 µg·h/mL

CCCCN1C(=O)c2cccc3c(NCCCCN4CCOCC4)ccc(c23)C1=O
fluorescence lifetime (dioxane): 10 ns

C=CC(=O)Nc1cc(Nc2nccc(-c3cn(C)c4ccccc34)n2)c(OC)cc1N(C)CCNC
recovery (storage stability; human plasma; 24 h, on ice, medium QC level): 89.5%

Some of these lines once more:
CCCCN1C(=O)c2cccc3c(NCCN4CCOCC4)ccc(c23)C1=O
molar extinction coefficient (DMSO): 7840 M⁻¹ cm⁻¹

COc1cccc(OC)c1-c1cc(C(=O)NC2(C(=O)O)C3CC4CC(C3)CC2C4)nn1-c1ccc(C(=O)NCCNC(=O)[C@H](CCCCNC(=O)[C@H](CC(C)C)NC(=O)C2OC2C(=O)O)NC(=O)CN2CCN(CC(=O)[O-])CCN(CC(=O)[O-])CCN(CC(=O)[O-])CC2)cc1C(C)C.[177Lu+3] (mixture of isomers)
tumour-to-brain ratio (mouse, HT-29 xenograft; 24 h post injection, biodistribution; reference: tumour over brain uptake): 88.6

C=CC(=O)N1CCCC(n2c(=O)c3ncccc3n(Cc3ccc(Oc4ccccc4)cc3)c2=O)C1 (stereo not shown)
plasma concentration (BALB/c mice, male, plasma; oral, 200 mg/kg, 4 h): 5210 ng/mL

O=C(Nc1cnccc1-c1ccc([18F])nc1)c1ccnc(NC(=O)C2CC2)c1
mean SUV (ex vivo gamma counting; FVB/NJ mice, both sexes, cecum; intravenous, 120 min): 7.24
